Experimental data collected from several papers.
Each numbered part is a random draw from the data of one study; scales do not carry over between parts.

Sample 1 — mode: inhibitor; concentration: 20 µM; measurement: inhibition
Target: Replicase polyprotein 1ab, nsp13 helicase (rep, Severe acute respiratory syndrome coronavirus 2, UniProt P0DTD1)
CCOC(=O)C1=C(C)NC(C)=C(C(=O)OCC)C1c1ccccc1/C=C/C(=O)OC(C)(C)C: 7.93%
O=C1COc2c(CCNCCN(C(=O)CCNCCc3ccc(Cl)c(Cl)c3)C3CCCCC3)ccc(O)c2N1: 25.5%
O=[N+]([O-])c1cccc2cn[nH]c12: 4.54%
Cc1ccc([N+](=O)[O-])cc1O: 1.2%
NC(=O)[C@@H](CCC(F)(F)F)N(Cc1ccc(-c2ncon2)cc1F)S(=O)(=O)c1ccc(Cl)cc1: 9.53%
c1ccc(-c2ccc(CNc3nc(-c4ccccn4)nnc3-c3ccccc3)cc2)cc1: -1.44%
c1cc2c(cc1C1CCCCC1)c1c3n2CCNC3CCC1 (stereo not drawn): 2.79%
CCn1cnc2c(Nc3cccc(Cl)c3)nc(N[C@@H]3CCCC[C@@H]3N)nc21: 4.51%
CCCCCCCCC(=O)NCc1cc(OC)c(O)cc1I: 5.63%
CC(=O)N1CC[N+](C)(C)CC1: 11%
CC(C)(C)[C@]1(O)C[C@@H]2OC(=O)C[C@@]23C(=O)O[C@@H]2OC(=O)[C@H](O)[C@]213: 5.24%
C[C@H]1O[C@@H](O[C@H]2[C@@H](O)C[C@H](O[C@H]3[C@@H](O)C[C@H](O[C@H]4CC[C@@]5(C)[C@H](CC[C@@H]6[C@@H]5C[C@@H](O)[C@]5(C)[C@@H](C7=CC(=O)OC7)CC[C@]65O)C4)O[C@@H]3C)O[C@@H]2C)C[C@H](O)[C@@H]1O: 7.31%
CC(C)C[C@H](NC(=O)[C@H](CCc1ccccc1)NC(=O)CN1CCOCC1)C(=O)N[C@@H](Cc1ccccc1)C(=O)N[C@@H](CC(C)C)C(=O)[C@@]1(C)CO1: 5.65%
NC(=O)c1ccccc1O: -0.56%
c1ccc(Oc2cccnc2)cc1: -6.67%
C[C@H](N)Cn1ccc2cc(F)c(Cl)cc21: 1.27%
OC[C@H]1O[C@H](O[C@H]2O[C@H](CO)[C@@H](O)[C@H](O)[C@H]2O)[C@H](O)[C@@H](O)[C@@H]1O: 0.01%
CC=CC1=C(C(=O)O)N2C(=O)[C@@H](NC(=O)[C@H](N)c3ccc(O)cc3)[C@H]2SC1: 6.13%

Sample 2 — method: protein-binding microarray; form: double-stranded DNA, one strand shown; matrix: in vitro; concentration: 250 nM; setting: 60-bp whole probe; added: salmon DNA 0.4 mg/ml; relative to: random background probes; direction: higher = stronger binding; measurement: log fluorescence; shared flanks, not repeated: GCCTAGCAC … GTCTTGATTCGCTTGACGCTGCTG
Target: Interferon regulatory factor 7, full length, phosphomimetic (IRF7, Homo sapiens, UniProt Q92985, residues 1-503, S101K/S471D/S472D/S475D/S476D/S477D/S483D/S484D/S487D)
Chain of UniProt Q92985 (whole entry, unmodified, looked up): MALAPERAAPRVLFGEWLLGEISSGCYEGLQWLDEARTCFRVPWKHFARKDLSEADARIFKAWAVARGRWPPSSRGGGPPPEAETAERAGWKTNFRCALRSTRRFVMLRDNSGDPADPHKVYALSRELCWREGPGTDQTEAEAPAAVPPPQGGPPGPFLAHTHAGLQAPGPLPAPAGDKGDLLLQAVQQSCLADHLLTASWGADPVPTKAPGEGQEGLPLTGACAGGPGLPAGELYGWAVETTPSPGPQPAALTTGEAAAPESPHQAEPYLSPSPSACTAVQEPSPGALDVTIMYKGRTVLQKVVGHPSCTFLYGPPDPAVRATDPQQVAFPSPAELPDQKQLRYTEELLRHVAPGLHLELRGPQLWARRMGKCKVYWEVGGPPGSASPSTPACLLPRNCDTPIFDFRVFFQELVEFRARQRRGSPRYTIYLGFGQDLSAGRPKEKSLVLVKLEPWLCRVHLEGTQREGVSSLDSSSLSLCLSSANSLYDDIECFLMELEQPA
TTAGGTATCGGGTATCGTTTAGTGCTA: 1.89 z-score
GACGGAATCGGGTATCGGGACGTGCTA: 0.109 z-score
GACGGTCTCGGTGTCGGGACGTGCTAG: -0.147 z-score
TTAGGTTGCGGTATCGGTTAGTGCTAG: 1.28 z-score
AGAGTGCTCATGCTTCTTAGGGTGCTA: -0.876 z-score
TTAGATATCGGGTATCGATTAGTGCTA: 0.522 z-score
TTAGATATCGGGACTGGATTGGTGCTA: -0.102 z-score
GACGATATCGGGCTTCGAGACGTGCTA: -0.524 z-score

Sample 3 — method: protein binding microarray; form: double-stranded DNA, one strand shown; matrix: in vitro; concentration: not given; relative to: not given; direction: higher = stronger binding; measurement: E-score
Target: Histone acetyltransferase KAT6A, both winged helices, GST fusion (KAT6A, Homo sapiens, UniProt Q92794, residues 1-181)
Setting: 8-mer, flanks averaged, mean of 2 arrays, mostly near background
Residues (chain): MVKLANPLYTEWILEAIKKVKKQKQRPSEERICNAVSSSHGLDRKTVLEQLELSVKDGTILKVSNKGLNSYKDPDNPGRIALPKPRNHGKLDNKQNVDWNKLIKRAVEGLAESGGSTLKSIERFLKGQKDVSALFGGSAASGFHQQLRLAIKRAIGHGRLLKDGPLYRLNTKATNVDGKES
AGCTACCG: 0.121
TCTTAGAA: 0.00826
CTCGTCAG: -0.0718
CAGCGTAA: 0.1
GATGATCC: 0.00265
AATCCATG: -0.118
AAGCGTCG: 0.127
CGAAGGCC: -0.022

Other studies, line by line — effect on: enzyme activity; concentration: 10 µM
Target: Replicase polyprotein 1ab, 3C-like proteinase (rep, Middle East respiratory syndrome-related coronavirus, UniProt K9N7C7)
CN(C)C(=S)SSC(=S)N(C)C  inhibition: 48%
COc1cccc(C(=O)CCN[C@@H](C)[C@H](O)c2ccccc2)c1  inhibition: 19%

Excerpt of the above (sample 1):
c1cc2c(cc1C1CCCCC1)c1c3n2CCNC3CCC1 (stereo not drawn): 2.79%
CC(C)(C)[C@]1(O)C[C@@H]2OC(=O)C[C@@]23C(=O)O[C@@H]2OC(=O)[C@H](O)[C@]213: 5.24%
C[C@H]1O[C@@H](O[C@H]2[C@@H](O)C[C@H](O[C@H]3[C@@H](O)C[C@H](O[C@H]4CC[C@@]5(C)[C@H](CC[C@@H]6[C@@H]5C[C@@H](O)[C@]5(C)[C@@H](C7=CC(=O)OC7)CC[C@]65O)C4)O[C@@H]3C)O[C@@H]2C)C[C@H](O)[C@@H]1O: 7.31%
